# Published values pooled from the literature.
Compound,test,system,setting,scale,measurement,result
Cn1ncnc1[C@H]1c2n[nH]c(=O)c3cc(F)cc(c23)N[C@@H]1c1ccc(F)cc1,,"human patients, plasma","oral, 600 µg/m2 twice daily day 1, day 5, dose level DL4, median, together with: temozolomide 30 mg/m2 daily days 2-6",,CL/F at steady state,3.2 L/h/m2
Cn1cncc1[C@@](N)(c1ccc(Cl)cc1)c1ccc2c(c1)c(-c1cccc(Cl)c1)cc(=O)n2C,,human patients,"oral, 300 mg/m2, first dose, cycle 1, expanded cohort, median",,CL/F,733 mL/min/m2
CCn1cc(C(=O)N2CCOCC2)c(=O)c2cc(NC3Cc4ccccc4C3)cnc21,,"human, fed","oral suspension, 2000 mg/day twice daily, day 8, arithmetic mean",,CL/F,86.1 L/h
Cn1cc(-c2cn3nccc3c(-c3cnn([C@]4(CC#N)C[C@@H](C#N)C4)c3)n2)cn1,,"healthy human, plasma","400 mg once daily, day 10, multiple dose, fed, geometric mean",,CL/F,73.8 L/h
CC1(COc2ccc3c(c2)ncn3-c2ccc3cccc(N4CCC(N)CC4)c3n2)COC1,,"human patients, recurrent/progressive HGG or DIPG, serum","oral, 220 mg/m^2, day 28, median",,CL/F,16 L/h/m²
C[C@@H](Oc1ccc(S(C)(=O)=O)cc1C(=O)N1C[C@@H]2C[C@]2(c2cc(C(F)(F)F)on2)C1)C(F)(F)F,,"elderly humans, plasma","25 mg once daily, multiple dose, geometric mean",,CL/F at steady state,74.1 mL/min
N#Cc1ccc2c(c1)[C@H]1CCCN(C(=O)c3ccc4[nH]cnc4c3)[C@H]1C2,,"human, plasma","oral, 80 mg once daily, day 28 steady state",,CL/F steady state,54.1 mL/min
CC(C)Nc1nc2cc(Cl)c(Cl)cc2n1[C@H]1O[C@@H](CO)[C@H](O)[C@@H]1O,population PK model,human CMV transplant recipients,"oral, dose not given",reference: other individuals,CL/F reduction,32%
CC[C@@H]1CN(C(=O)NCC(F)(F)F)C[C@@H]1c1cnc2cnc3[nH]ccc3n12,population PK modelling,human,"oral, final model, outliers re-estimated",reference: RA patients over healthy subjects,CL/F ratio,0.773
Cc1ncnc2c1ccn2[C@@H]1C[C@H](Oc2cc(C(F)F)c(F)c3c2CNCC3)[C@@H](O)[C@H]1O,,human,"oral, 6 mg twice daily",,CL/F,21.4 L/h
C#C[C@]1(CO)O[C@@H](n2cnc3c(N)nc(F)nc32)C[C@@H]1O,,"human, plasma","oral, 100 mg, single dose, geometric mean",,CL/F,29.3 L/h

# For quick reference, copied from above:
Compound,test,system,setting,scale,measurement,result
C[C@@H](Oc1ccc(S(C)(=O)=O)cc1C(=O)N1C[C@@H]2C[C@]2(c2cc(C(F)(F)F)on2)C1)C(F)(F)F,,"elderly humans, plasma","25 mg once daily, multiple dose, geometric mean",,CL/F at steady state,74.1 mL/min
